Experimental data pooled from the literature.
Lines come from different studies, so protocols differ. ± gives the spread as reported.

| Compound | target or system | assay | test system | setting | how to read | measurement | result |
| --- | --- | --- | --- | --- | --- | --- | --- |
| Cc1cn(-c2cc(NC(=O)c3ccc(C)c(Nc4nccc(-c5cccnc5)n4)c3)cc(C(F)(F)F)c2)cn1 |  | population PK model, bootstrap | human, both sexes, plasma | oral, dose not given |  | central volume of distribution (V1) | 556 L |
| CN(CC#N)C(=O)C[C@H](Nc1nc2ccccc2[nH]1)c1cccc(C(F)(F)F)c1 |  |  | human | intravenous infusion, 5 mg/kg, 1 mg/mL formulation |  | terminal half-life | 4.01 ± 0.16 h |
| O=C(Nc1nc2cccc(-c3ccc(CN4CCS(=O)(=O)CC4)cc3)n2n1)C1CC1 |  | item: gastrointestinal pain | human rheumatoid arthritis patients | oral, 300 mg once daily, 4 weeks, regardless of relatedness |  | treatment-emergent adverse events | 5% |
| NS(=O)(=O)NCCNc1nonc1C(=NO)Nc1ccc(F)c(Br)c1 | THP-1 | pyroptotic LDH release |  | 2 µM, 40 min, together with: LPS then nigericin |  | inhibition | -4.59% |
| C[C@@H](Nc1cc(F)cc(F)c1)c1cc(C(=O)N(C)C)cc2c(=O)cc(N3CCOCC3)oc12 |  |  | human, plasma | oral, 240 mg, day 1 single dose |  | Cmax geometric mean | 787 ng/mL |
| CC(=O)N(C)C1CCN(c2cc(F)cc(NC(=O)c3cc4c(F)ccc(C)c4[nH]3)c2)C1 (centres unmarked) |  |  | CD1 mouse, plasma | oral, 50 mg/kg, 1 h |  | plasma concentration | 37.6 ng/mL |
| CCCCOC(=O)N1CCN(C(=O)[C@H](CP(=O)(O)O)NC(=O)c2cc(N3CC[C@H](OC)C3)nc(-c3ccccc3)n2)CC1 |  | item: creatinine | human, serum | 16 mg, 24 h post-dose |  | change from baseline | -0.1 ± 8 µmol/L |
| N#CCc1ccccc1C#Cc1ccc(CCC(=O)O)cc1 |  |  |  | 10 µM, Cerep high-content toxicity |  | change in mitochondrial membrane potential | -2% |
| CC[C@H](C)[C@H](NC(C)=O)C(=O)N[C@H]1CSSC[C@@H](C(=O)N[C@H](C(N)=O)[C@@H](C)O)NC(=O)[C@H](CCCNC(=N)N)NC(=O)[C@H](Cc2c[nH]cn2)NC(=O)[C@](C)(CC)NC(=O)CNC(=O)[C@H](Cc2c[nH]c3ccccc23)NC(=O)[C@H](CC(=O)O)NC(=O)[C@H](CCC(N)=O)NC(=O)[C@H](Cc2c[nH]c3ccccc23)NC(=O)[C@H](C(C)C)NC1=O |  | isocratic RP-HPLC, C18 | 32% acetonitrile, phosphate pH 7.4, 1% TFA | 25 °C |  | retention factor | 1.208 ± 0.01 |
| Cc1cc(C(=O)NC(C)(C)COc2cccc3c2C(N)=NS(=O)(=O)N3)cc(C)n1 |  |  | Sprague-Dawley rat, male, plasma | oral, 10 mg/kg |  | dose-normalised AUC(0-last) | 1.81 ng·h/mL/mg/kg |
| CN1CCN(c2cccc3c2CCN(C(=O)/C=C/c2c(-n4cnnn4)ccc(Cl)c2F)[C@@H]3C(=O)Nc2ccc(C(=O)O)cc2)C(=O)C1 |  |  | healthy human subjects | intravenous infusion, 9 mg/h, 5 days |  | subjects with any adverse event | 44.4% |
| CCCCCN1C[C@H](O)[C@@H](O)[C@H](O)[C@@H]1CO |  | LC-MS/MS | Hexb-/- mice, female, brain | 300 mg/kg/day |  | mean brain concentration | 274 ng/g |
| CNCCOC12CC3(C)CC(C)(CC(Cn4ncc(-c5ccc(N6CCc7cccc(C(=O)Nc8nc9ccccc9s8)c7C6)nc5C(=O)O)c4C)(C3)C1)C2 |  |  | beagle dog, male, anaesthetised | intravenous bolus, 0.03 mg/kg, 10 min | relative to: baseline | heart rate change | 5% |
| NC(Cc1ccc(Cl)cc1)C(=O)O (racemic) | THP-1 | pyroptotic LDH release |  | 2 µM, 40 min, together with: LPS then nigericin |  | inhibition | -15.5% |
| CCn1cc(C(=O)N2CCOCC2)c(=O)c2cc(NC3Cc4ccccc4C3)cnc21 |  |  | human male, fed, plasma | oral, 900 mg twice daily, day 7, tablet, arithmetic mean |  | half-life | 5.85 h |
| C=CCN1CC(=O)N2[C@@H](Cc3ccc(O)cc3F)C(=O)N(Cc3cccc(N4CC(N5CCN(CC)CC5)C4)n3)C[C@@H]2N1C(=O)NCc1ccccc1 |  |  | advanced solid tumour patients | oral, 100 mg twice daily, grade ≥3, dose-escalation |  | treatment-related decreased appetite | 0% |
| CNC(=O)c1cc(Oc2ccc(NC(=O)Nc3cc(C(C)(C)C)nn3-c3ccc4ncccc4c3)c(F)c2)ccn1 |  |  | human | oral, dose not given, cycles 1 and 2, Medium AUC(0-4 h) subgroup |  | patients with any AE of special interest | 86% |
| Cc1cc(Nc2ccc(S(F)(F)(F)(F)F)cc2)n2nc(C(C)(F)F)nc2n1 |  |  | Plasmodium falciparum malaria patients | oral, 400 mg |  | adverse event Vomiting | 0% |
| Cl.[2H]C([2H])([2H])CC(=O)c1cnc(NC(=O)C2CC2)cc1Nc1cccc(-c2ncn(C([2H])([2H])[2H])n2)c1OC |  | geometric mean | human | oral, 10 mg once daily, day 1, fasted, liquid, multiple dose |  | AUC(0-tau) | 701 ng·h/mL |
| NS(=O)(=O)c1ccc(CNc2nc(Nc3cccc(CN4CCOCC4)c3)ncc2C2CC2)cc1 |  | PAMPA | PBS | 5 h, pH 7.4 |  | effective permeability | 0.709 ×10⁻⁶ cm/s |

Excerpt of the above:
| Compound | target or system | assay | test system | setting | how to read | measurement | result |
| --- | --- | --- | --- | --- | --- | --- | --- |
| CN1CCN(c2cccc3c2CCN(C(=O)/C=C/c2c(-n4cnnn4)ccc(Cl)c2F)[C@@H]3C(=O)Nc2ccc(C(=O)O)cc2)C(=O)C1 |  |  | healthy human subjects | intravenous infusion, 9 mg/h, 5 days |  | subjects with any adverse event | 44.4% |
| CCCCCN1C[C@H](O)[C@@H](O)[C@H](O)[C@@H]1CO |  | LC-MS/MS | Hexb-/- mice, female, brain | 300 mg/kg/day |  | mean brain concentration | 274 ng/g |
| CNCCOC12CC3(C)CC(C)(CC(Cn4ncc(-c5ccc(N6CCc7cccc(C(=O)Nc8nc9ccccc9s8)c7C6)nc5C(=O)O)c4C)(C3)C1)C2 |  |  | beagle dog, male, anaesthetised | intravenous bolus, 0.03 mg/kg, 10 min | relative to: baseline | heart rate change | 5% |
